{"data": "Published values gathered from unrelated publications", "note": "Parts stem from different laboratories: compare values within a part only. Positions count from the first letter of the parent shown."}
{"data": "Sample 1", "target": "HLA class I histocompatibility antigen, A alpha chain, allele A*80:01 (Homo sapiens, UniProt P04439)", "observed": "peptide-MHC binding", "form": "peptide", "tested at": "concentration not given"}
{"Molecule": "MRIGSMATL", "binding": "inactive"}
{"Molecule": "RTFSILNRK", "binding": "inactive"}
{"Molecule": "YVAGITLTH", "binding": "inactive"}
{"Molecule": "FTARIIIFS", "binding": "inactive"}
{"Molecule": "SHGIDVTDL", "binding": "inactive"}
{"Molecule": "ASSEPHCAL", "binding": "inactive"}
{"data": "Sample 2", "target": "Protein C-ets-1 (ETS1, Homo sapiens, UniProt P14921, residues 1-441, K379A, full length assumed)", "method": "protein-binding microarray", "form": "double-stranded DNA, one strand shown", "medium": "in vitro", "tested at": "not given", "notes": "k-mer, scored over probes, only values ≥0.25", "reading": "higher = stronger binding", "chain of UniProt P14921 (whole entry, unmodified, looked up)": "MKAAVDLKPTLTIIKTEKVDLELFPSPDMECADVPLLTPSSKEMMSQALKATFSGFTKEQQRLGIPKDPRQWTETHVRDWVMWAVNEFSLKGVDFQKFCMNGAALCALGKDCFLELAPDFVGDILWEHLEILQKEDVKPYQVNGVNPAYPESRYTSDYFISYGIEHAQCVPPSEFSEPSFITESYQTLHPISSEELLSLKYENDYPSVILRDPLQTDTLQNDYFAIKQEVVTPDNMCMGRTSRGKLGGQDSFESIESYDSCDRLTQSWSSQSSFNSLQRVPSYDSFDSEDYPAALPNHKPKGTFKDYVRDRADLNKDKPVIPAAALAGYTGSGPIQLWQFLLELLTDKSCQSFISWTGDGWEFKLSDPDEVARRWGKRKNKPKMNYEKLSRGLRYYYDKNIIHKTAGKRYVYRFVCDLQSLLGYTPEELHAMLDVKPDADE"}
{"Oligonucleotide": "GTCGGTTA", "E-score": 0.274}
{"Oligonucleotide": "CTAATTAG", "E-score": 0.251}
{"Oligonucleotide": "CCGGAATA", "E-score": 0.269}
{"Oligonucleotide": "CGGTCAAC", "E-score": 0.251}
{"Oligonucleotide": "AACTCCGG", "E-score": 0.343}
{"Oligonucleotide": "CGTCGTAC", "E-score": 0.294}
{"Oligonucleotide": "CCGGTAGA", "E-score": 0.35}
{"Oligonucleotide": "CCGGGTAC", "E-score": 0.311}
{"data": "Sample 3", "target": "CCND1, cyclin fold, Cln2 fusion (human)", "method": "yeast growth competition, sequencing", "medium": "yeast", "notes": "strong parent motif", "relative to": "not given", "reading": "higher = stronger binding", "parent": "viral docking peptide; KGVKRKLFAEDSS; partner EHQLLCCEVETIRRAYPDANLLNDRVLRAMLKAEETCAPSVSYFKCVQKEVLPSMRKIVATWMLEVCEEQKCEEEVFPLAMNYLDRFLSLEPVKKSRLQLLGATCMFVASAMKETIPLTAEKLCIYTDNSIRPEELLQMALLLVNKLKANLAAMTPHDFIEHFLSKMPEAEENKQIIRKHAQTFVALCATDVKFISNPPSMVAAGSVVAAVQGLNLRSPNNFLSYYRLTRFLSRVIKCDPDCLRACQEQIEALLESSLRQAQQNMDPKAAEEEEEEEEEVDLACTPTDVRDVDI"}
{"Change": "KGVKRKLTAEDSS [F8T]", "normalised enrichment score": -0.065}
{"Change": "KGVKRKLGAEDSS [F8G]", "normalised enrichment score": 0.219}
{"Change": "KQVKRKLFAEDSS [G2Q]", "normalised enrichment score": 2.17}
{"Change": "KAVKRKLFAEDSS [G2A]", "normalised enrichment score": 1.16}
{"Change": "KGVKRHLFAEDSS [K6H]", "normalised enrichment score": 0.238}
{"Change": "KGVKRKNFAEDSS [L7N]", "normalised enrichment score": 0.0824}
{"Change": "KGNKRKLFAEDSS [V3N]", "normalised enrichment score": 0.244}
{"Change": "KGVKCKLFAEDSS [R5C]", "normalised enrichment score": 0.58}
{"Change": "KGVKRTLFAEDSS [K6T]", "normalised enrichment score": 0.355}
{"Change": "KGVKRKLPAEDSS [F8P]", "normalised enrichment score": -0.0314}
{"Change": "KGVKRNLFAEDSS [K6N]", "normalised enrichment score": 0.23}
{"Change": "KVVKRKLFAEDSS [G2V]", "normalised enrichment score": 1.06}
{"Change": "KGLKRKLFAEDSS [V3L]", "normalised enrichment score": 0.371}
{"Change": "KGVKRKLFAWDSS [E10W]", "normalised enrichment score": 0.49}
{"Change": "KGVKQKLFAEDSS [R5Q]", "normalised enrichment score": 0.407}
{"Change": "KGVKRKLFAEDQS [S12Q]", "normalised enrichment score": 0.788}
{"Change": "KGVKRKLFAEMSS [D11M]", "normalised enrichment score": 0.198}
{"Change": "KGVKRKLFASDSS [E10S]", "normalised enrichment score": 0.304}
{"Change": "KGVKRKLFALDSS [E10L]", "normalised enrichment score": 0.609}
{"Change": "KGVKRKLKAEDSS [F8K]", "normalised enrichment score": 0.274}
{"Change": "KGVERKLFAEDSS [K4E]", "normalised enrichment score": 0.714}
{"Change": "KGVKRKLFAEDAS [S12A]", "normalised enrichment score": 1.4}
{"Change": "KGVKAKLFAEDSS [R5A]", "normalised enrichment score": 0.103}
{"Change": "KGVKRKLAAEDSS [F8A]", "normalised enrichment score": 0.15}
{"Change": "KGSKRKLFAEDSS [V3S]", "normalised enrichment score": 0.772}
{"data": "Sample 4", "target": "Eukaryotic initiation factor 4A-I (EIF4A1, Homo sapiens, UniProt P60842, residues 1-406, full length assumed)", "method": "RNA Bind-n-Seq", "form": "RNA", "medium": "in vitro", "tested at": "90 pmol", "notes": "4-mer, random 30-nt RNA, single round", "together with": "3 µM iPr-DMDA-PatA, 2 mM ADP, 2 mM phosphate", "relative to": "input library", "reading": "higher = stronger binding", "chain of UniProt P60842 (whole entry, looked up)": "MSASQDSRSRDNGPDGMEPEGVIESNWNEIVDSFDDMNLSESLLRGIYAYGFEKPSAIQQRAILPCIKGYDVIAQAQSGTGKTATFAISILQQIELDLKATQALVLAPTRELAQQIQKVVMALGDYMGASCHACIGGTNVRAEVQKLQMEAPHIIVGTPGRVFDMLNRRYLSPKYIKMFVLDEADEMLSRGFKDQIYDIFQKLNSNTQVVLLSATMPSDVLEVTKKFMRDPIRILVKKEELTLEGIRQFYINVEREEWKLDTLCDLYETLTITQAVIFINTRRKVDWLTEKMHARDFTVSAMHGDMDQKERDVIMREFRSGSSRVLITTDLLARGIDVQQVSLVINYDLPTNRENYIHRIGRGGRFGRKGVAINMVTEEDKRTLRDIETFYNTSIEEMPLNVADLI"}
{"Oligonucleotide": "ACAU", "4-mer enrichment [fold]": 1.16}
{"Oligonucleotide": "AGCA", "4-mer enrichment [fold]": 1.05}
{"Oligonucleotide": "GGAA", "4-mer enrichment [fold]": 1.03}
{"Oligonucleotide": "UCUC", "4-mer enrichment [fold]": 0.972}
{"Oligonucleotide": "AUUC", "4-mer enrichment [fold]": 1.16}
{"Oligonucleotide": "UGGC", "4-mer enrichment [fold]": 0.703}
{"Oligonucleotide": "UAUA", "4-mer enrichment [fold]": 1.36}
{"Oligonucleotide": "UGUU", "4-mer enrichment [fold]": 0.973}
{"data": "Sample 5", "target": "TAR DNA-binding protein 43, full length, His tag (TARDBP, Homo sapiens, UniProt Q13148, residues 1-414)", "method": "RNA Bind-n-Seq", "form": "RNA", "medium": "in vitro", "tested at": "20 nM", "notes": "6-mer, flanks averaged, single round", "together with": "150 mM LiCl", "relative to": "input library", "reading": "higher = stronger binding"}
{"Oligonucleotide": "UCCCUC", "6-mer enrichment (R)": 1.04}
{"Oligonucleotide": "CAGCAA", "6-mer enrichment (R)": 0.868}
{"Oligonucleotide": "UCAGAG", "6-mer enrichment (R)": 0.874}
{"Oligonucleotide": "CCAGGC", "6-mer enrichment (R)": 0.929}
{"Oligonucleotide": "CUCGAG", "6-mer enrichment (R)": 0.86}
{"Oligonucleotide": "AGAGGA", "6-mer enrichment (R)": 1}
{"Oligonucleotide": "CAGCGG", "6-mer enrichment (R)": 0.966}
{"Oligonucleotide": "UUCGAG", "6-mer enrichment (R)": 0.899}
{"note": "Repeated from above (sample 4):"}
{"Oligonucleotide": "UCUC", "4-mer enrichment [fold]": 0.972}
{"Oligonucleotide": "ACAU", "4-mer enrichment [fold]": 1.16}
{"Oligonucleotide": "AGCA", "4-mer enrichment [fold]": 1.05}
{"Oligonucleotide": "GGAA", "4-mer enrichment [fold]": 1.03}
{"Oligonucleotide": "UAUA", "4-mer enrichment [fold]": 1.36}
{"Oligonucleotide": "UGUU", "4-mer enrichment [fold]": 0.973}
{"Oligonucleotide": "AUUC", "4-mer enrichment [fold]": 1.16}
{"Oligonucleotide": "UGGC", "4-mer enrichment [fold]": 0.703}
